Assay results of several laboratories.
A part holds a random share of what one study measured.
Sequence of UniProt P54764 (whole entry, looked up): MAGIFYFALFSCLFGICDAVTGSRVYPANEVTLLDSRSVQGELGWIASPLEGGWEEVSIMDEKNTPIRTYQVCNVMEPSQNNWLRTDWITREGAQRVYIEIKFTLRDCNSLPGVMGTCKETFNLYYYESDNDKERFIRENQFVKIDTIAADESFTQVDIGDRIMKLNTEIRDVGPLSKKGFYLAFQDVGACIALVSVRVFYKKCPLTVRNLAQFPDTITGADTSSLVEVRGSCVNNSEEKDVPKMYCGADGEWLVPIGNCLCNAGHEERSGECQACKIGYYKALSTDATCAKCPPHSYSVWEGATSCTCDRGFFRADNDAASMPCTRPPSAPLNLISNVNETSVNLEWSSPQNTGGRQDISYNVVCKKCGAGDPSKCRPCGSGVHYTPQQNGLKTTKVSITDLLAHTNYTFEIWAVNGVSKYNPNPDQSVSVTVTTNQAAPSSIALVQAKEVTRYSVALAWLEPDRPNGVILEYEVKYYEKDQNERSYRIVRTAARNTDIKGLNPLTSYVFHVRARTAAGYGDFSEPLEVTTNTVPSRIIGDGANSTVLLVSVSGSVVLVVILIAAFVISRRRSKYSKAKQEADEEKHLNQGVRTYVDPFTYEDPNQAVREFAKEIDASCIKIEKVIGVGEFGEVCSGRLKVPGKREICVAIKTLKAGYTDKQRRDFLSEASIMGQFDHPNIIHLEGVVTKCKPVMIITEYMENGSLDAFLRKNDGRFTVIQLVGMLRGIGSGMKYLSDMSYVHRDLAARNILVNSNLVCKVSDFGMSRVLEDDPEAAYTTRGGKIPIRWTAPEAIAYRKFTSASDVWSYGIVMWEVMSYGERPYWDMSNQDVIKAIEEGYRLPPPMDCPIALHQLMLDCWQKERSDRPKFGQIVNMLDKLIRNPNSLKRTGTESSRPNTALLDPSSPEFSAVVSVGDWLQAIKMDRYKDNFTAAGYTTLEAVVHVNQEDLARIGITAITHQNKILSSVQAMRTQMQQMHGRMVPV
Sequence of UniProt P51451 (whole entry, looked up): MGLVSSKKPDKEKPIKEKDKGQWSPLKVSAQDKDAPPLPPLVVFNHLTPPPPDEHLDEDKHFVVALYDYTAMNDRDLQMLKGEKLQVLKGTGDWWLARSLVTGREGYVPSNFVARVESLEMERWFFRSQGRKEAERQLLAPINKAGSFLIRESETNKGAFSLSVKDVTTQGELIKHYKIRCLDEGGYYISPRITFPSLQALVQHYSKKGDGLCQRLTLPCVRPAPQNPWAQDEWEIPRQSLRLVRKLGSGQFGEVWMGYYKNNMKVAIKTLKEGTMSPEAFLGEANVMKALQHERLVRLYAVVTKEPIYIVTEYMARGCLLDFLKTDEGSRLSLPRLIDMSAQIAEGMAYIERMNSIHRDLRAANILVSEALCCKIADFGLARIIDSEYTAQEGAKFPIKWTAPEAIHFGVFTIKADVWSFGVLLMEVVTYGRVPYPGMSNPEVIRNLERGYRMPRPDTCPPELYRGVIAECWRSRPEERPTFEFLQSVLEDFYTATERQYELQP
Sequence of UniProt O43781 (whole entry, looked up): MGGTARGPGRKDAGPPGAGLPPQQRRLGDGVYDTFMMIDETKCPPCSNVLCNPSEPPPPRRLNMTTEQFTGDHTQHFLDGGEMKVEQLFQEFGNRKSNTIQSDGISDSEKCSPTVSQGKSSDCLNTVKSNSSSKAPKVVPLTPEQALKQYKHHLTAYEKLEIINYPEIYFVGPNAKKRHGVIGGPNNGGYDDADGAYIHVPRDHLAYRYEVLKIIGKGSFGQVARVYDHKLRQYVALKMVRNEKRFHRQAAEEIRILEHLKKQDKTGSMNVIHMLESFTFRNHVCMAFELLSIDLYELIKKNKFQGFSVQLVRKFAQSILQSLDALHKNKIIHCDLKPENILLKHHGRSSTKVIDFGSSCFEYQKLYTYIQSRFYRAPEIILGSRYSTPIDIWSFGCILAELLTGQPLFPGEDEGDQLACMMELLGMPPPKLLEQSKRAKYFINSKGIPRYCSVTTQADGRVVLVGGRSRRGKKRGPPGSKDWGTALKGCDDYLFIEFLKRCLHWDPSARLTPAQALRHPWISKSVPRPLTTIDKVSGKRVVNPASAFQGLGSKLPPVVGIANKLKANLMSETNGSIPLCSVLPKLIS
Sequence of UniProt Q14164 (whole entry, looked up): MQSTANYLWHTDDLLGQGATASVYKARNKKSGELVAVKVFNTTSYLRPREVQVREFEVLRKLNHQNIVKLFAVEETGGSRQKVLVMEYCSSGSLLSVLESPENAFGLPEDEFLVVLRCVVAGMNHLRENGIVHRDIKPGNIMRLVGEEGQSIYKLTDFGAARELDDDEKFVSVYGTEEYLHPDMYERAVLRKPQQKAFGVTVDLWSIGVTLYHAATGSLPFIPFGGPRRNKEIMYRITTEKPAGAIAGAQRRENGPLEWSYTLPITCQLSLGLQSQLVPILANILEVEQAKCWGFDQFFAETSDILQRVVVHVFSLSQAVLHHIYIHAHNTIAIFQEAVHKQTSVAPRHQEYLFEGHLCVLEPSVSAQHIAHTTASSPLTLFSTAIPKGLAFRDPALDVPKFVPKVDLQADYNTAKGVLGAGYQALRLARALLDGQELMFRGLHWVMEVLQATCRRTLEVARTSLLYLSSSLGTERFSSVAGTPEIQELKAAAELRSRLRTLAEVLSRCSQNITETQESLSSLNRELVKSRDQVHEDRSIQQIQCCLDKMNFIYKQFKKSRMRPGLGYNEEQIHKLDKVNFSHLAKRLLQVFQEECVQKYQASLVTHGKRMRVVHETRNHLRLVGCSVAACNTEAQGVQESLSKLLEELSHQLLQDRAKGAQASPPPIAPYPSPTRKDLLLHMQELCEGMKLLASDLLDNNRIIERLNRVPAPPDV
Sequence of UniProt P08069 (whole entry, looked up): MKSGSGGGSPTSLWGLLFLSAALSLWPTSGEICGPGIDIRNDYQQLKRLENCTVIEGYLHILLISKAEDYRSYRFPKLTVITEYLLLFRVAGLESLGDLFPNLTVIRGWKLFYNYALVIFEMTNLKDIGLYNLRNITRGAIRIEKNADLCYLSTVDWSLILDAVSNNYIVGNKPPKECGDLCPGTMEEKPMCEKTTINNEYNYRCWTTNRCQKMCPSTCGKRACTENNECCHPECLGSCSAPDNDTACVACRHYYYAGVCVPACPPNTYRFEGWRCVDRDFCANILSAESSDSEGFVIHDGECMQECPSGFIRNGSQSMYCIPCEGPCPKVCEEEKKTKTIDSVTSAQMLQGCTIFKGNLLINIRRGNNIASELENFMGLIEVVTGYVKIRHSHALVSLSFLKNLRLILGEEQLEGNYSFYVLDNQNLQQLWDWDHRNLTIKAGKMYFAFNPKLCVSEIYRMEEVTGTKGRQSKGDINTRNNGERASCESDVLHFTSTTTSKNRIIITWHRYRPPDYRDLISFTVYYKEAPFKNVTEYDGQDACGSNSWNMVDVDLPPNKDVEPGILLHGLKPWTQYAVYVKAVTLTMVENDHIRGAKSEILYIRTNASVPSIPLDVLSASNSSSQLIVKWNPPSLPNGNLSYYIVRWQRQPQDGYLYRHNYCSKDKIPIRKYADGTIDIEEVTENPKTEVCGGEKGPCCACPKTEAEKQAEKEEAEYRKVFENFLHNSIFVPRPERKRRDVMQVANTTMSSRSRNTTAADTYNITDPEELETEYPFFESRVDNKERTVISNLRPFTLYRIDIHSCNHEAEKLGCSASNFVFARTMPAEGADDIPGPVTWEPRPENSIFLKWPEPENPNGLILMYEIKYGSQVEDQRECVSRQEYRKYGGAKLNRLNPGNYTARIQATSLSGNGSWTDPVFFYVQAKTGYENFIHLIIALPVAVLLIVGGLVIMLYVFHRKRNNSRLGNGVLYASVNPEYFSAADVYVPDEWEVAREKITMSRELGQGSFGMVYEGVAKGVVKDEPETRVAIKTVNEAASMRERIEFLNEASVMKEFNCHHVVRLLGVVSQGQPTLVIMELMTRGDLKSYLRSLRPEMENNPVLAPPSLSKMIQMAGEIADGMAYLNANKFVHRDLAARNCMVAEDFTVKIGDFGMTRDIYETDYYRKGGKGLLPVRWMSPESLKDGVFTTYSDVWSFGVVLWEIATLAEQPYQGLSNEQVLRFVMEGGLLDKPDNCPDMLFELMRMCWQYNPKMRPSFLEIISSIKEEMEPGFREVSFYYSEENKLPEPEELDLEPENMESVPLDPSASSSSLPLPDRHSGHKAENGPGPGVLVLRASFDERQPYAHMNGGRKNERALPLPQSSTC
Sequence of UniProt Q16644 (whole entry, looked up): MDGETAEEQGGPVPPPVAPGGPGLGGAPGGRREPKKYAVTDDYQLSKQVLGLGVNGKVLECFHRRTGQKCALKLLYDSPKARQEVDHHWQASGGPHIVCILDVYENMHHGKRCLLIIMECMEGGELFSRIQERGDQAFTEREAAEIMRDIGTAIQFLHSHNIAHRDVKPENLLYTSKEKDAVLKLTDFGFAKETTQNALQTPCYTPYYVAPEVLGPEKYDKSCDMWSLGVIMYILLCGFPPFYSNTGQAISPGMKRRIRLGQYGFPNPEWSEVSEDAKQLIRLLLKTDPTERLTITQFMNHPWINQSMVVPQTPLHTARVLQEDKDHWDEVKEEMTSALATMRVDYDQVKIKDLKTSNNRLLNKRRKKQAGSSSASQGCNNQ
Sequence of UniProt Q16816 (whole entry, looked up): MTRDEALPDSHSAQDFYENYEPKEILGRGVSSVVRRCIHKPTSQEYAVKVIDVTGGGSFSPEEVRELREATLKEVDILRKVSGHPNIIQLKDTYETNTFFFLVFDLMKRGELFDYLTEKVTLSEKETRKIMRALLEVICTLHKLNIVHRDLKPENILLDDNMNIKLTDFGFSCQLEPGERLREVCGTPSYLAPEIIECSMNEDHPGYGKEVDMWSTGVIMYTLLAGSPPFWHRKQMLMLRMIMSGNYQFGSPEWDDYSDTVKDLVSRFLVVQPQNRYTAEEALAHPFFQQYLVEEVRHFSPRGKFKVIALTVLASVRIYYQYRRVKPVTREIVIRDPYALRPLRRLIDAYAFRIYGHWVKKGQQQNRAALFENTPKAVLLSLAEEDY

Set 1
Target: Diamine acetyltransferase 1 (Homo sapiens, UniProt P21673)
Mode: inhibitor
Concentration: 10 µM
Baseline: control
Measurement: remaining activity
Construct (P21673 1-171): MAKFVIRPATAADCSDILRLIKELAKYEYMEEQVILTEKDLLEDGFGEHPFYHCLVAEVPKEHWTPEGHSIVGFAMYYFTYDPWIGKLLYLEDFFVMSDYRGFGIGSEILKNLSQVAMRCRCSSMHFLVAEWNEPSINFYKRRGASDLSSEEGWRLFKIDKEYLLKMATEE
C=C(C)[C@@H]1CC=C(CO)CC1: 101%
COC(=O)C1=CO[C@@H](O[C@@H]2O[C@H](CO)[C@@H](O)[C@H](O)[C@H]2O)[C@H]2[C@@H]1C=C[C@@]2(O)CO: 88.5%
CC(=O)OCC=C(C)CCC=C(C)CCC=C(C)C: 102%
C=C(CC[C@@H](C(=O)O)[C@H]1[C@H](O)C[C@@]2(C)C3=CC[C@H]4C(C)(C)[C@@H](O)CC[C@]4(C)C3=CC[C@]12C)C(C)C: 74.1%
C/C1=C\CC/C(C)=C/CC(C)(C)/C=C/C1: 98.7%
O=c1ccc2ccccc2o1: 99%
O=c1cc(-c2ccc(O)c(O)c2)oc2cc(O)c([C@@H]3O[C@H](CO)[C@@H](O)[C@H](O)[C@H]3O)c(O)c12: 84.8%
OCc1ccc(O[C@@H]2O[C@H](CO)[C@@H](O)[C@H](O)[C@H]2O)cc1: 96%
O=c1cc(-c2ccc(O)cc2)oc2cc(O[C@@H]3O[C@H](CO)[C@@H](O)[C@H](O)[C@H]3O)cc(O)c12: 96.4%
CCCCC(CC)COC(=O)c1ccccc1C(=O)O (stereo not drawn): 95.6%
OCC(O)CO: 123%

Set 2
SMILES: CC(C)S(=O)(=O)c1ccc2nccc(Nc3ccc4sc(C5CCCC5)nc4c3)c2c1
Effect on: kinase activity
Mode: inhibitor
Concentration: 1 µM
Measurement: remaining activity
NUAK2 (Homo sapiens, UniProt Q9H093): 118%
CLK3 (Homo sapiens, UniProt P49761): 108%
IKBKE (Homo sapiens, UniProt Q14164): 110%
STK26 (Homo sapiens, UniProt Q9P289): 83.5%
LRRK2 (Homo sapiens, UniProt Q5S007): 116%

Set 3
SMILES: FC(F)(F)c1ccc(/C=C/c2nc(COc3ccc(CCCCn4ccnn4)cc3)co2)cc1
Effect on: enzyme activity
Mode: inhibitor
Concentration: 0.5 µM
Baseline: control
Measurement: remaining activity
STK17A (Homo sapiens, UniProt Q9UEE5): 103%
TSSK2 (Homo sapiens, UniProt Q96PF2): 100%
EPHB4 (Homo sapiens, UniProt P54760): 92.2%
AXL (Homo sapiens, UniProt P30530): 101%
WNK3 (Homo sapiens, UniProt Q9BYP7): 98.5%
EPHA4 (Homo sapiens, UniProt P54764): 98.8%
Cyclin-dependent kinase 1, with cyclin B (CDK1, Homo sapiens, UniProt P06493): 93.8%
SRMS (Homo sapiens, UniProt Q9H3Y6): 93.5%
DYRK3 (Homo sapiens, UniProt O43781): 109%
Cyclin-dependent kinase 4, with cyclin D3 (CDK4, Homo sapiens, UniProt P11802): 119%
EPHB1 (Homo sapiens, UniProt P54762): 99.4%
CAMK2B (Homo sapiens, UniProt Q13554): 99.3%
MAPKAPK3 (Homo sapiens, UniProt Q16644): 98.9%
STK16 (Homo sapiens, UniProt O75716): 104%
HIPK2 (Homo sapiens, UniProt Q9H2X6): 90.2%
PDPK1 (Homo sapiens, UniProt O15530): 104%
PRKACG (Homo sapiens, UniProt P22612): 105%
PHKG1 (Homo sapiens, UniProt Q16816): 92.9%
Cyclin-dependent kinase 6, with cyclin D3 (CDK6, Homo sapiens, UniProt Q00534): 90%
MAP4K4 (Homo sapiens, UniProt O95819): 95.1%
RPS6KA6 (Homo sapiens, UniProt Q9UK32): 100%
RPS6KA5 (Homo sapiens, UniProt O75582): 111%
BLK (Homo sapiens, UniProt P51451): 102%
HIPK4 (Homo sapiens, UniProt Q8NE63): 105%

Set 4
SMILES: CCCCN(CCCC)C(=O)CN1C[C@@H](c2cc(OC)c3c(c2)OCO3)[C@H](C(=O)O)[C@H]1CC(C)(C)CCC
Effect on: cell-free assay
Method: competition with immobilised ligand
Concentration: 1 µM
Measurement: remaining binding
CAMKK2 (Homo sapiens, UniProt Q96RR4): 87.2%
CAMKK1 (Homo sapiens, UniProt Q8N5S9): 100%
EGFR (Homo sapiens, UniProt P00533, del752-759): 100%
MAP2K3 (Homo sapiens, UniProt P46734): 89.5%
GRK1 (Homo sapiens, UniProt Q15835): 100%
FGFR2 (Homo sapiens, UniProt P21802): 83.2%
WEE1 (Homo sapiens, UniProt P30291): 84.8%
SIK3 (Homo sapiens, UniProt Q9Y2K2): 74.8%
FES (Homo sapiens, UniProt P07332): 100%
IGF1R (Homo sapiens, UniProt P08069): 97%
NEK1 (Homo sapiens, UniProt Q96PY6): 100%
MAP3K7 (Homo sapiens, UniProt O43318): 84.7%
PRKCH (Homo sapiens, UniProt P24723): 0%
MAP2K4 (Homo sapiens, UniProt P45985): 93.3%
FLT4 (Homo sapiens, UniProt P35916): 100%
CSNK1D (Homo sapiens, UniProt P48730): 98.9%
Ribosomal protein S6 kinase alpha-1, N-terminal kinase domain (RPS6KA1, Homo sapiens, UniProt Q15418): 91.3%

Excerpt of the above (set 3):
SRMS (Homo sapiens, UniProt Q9H3Y6): 93.5%
DYRK3 (Homo sapiens, UniProt O43781): 109%
Cyclin-dependent kinase 4, with cyclin D3 (CDK4, Homo sapiens, UniProt P11802): 119%
EPHB1 (Homo sapiens, UniProt P54762): 99.4%
CAMK2B (Homo sapiens, UniProt Q13554): 99.3%
MAPKAPK3 (Homo sapiens, UniProt Q16644): 98.9%
STK16 (Homo sapiens, UniProt O75716): 104%
HIPK2 (Homo sapiens, UniProt Q9H2X6): 90.2%
